Measurements gathered from unrelated publications.
Every numbered part comes from another study and shows a few of its results, in no order. Substitutions count along the parent as printed.

Sample 1
Target: CCND2, cyclin fold, Cln2 fusion (human)
Technique: yeast growth competition, sequencing
Sample: yeast
Notes: weak parent motif
Baseline: not given
Direction: higher = stronger binding
Starting sequence: CDKN1B docking peptide (human); PSACRNLFGPVDH
Substitution | normalised enrichment score
PSACRHLFGPVDH [N6H] | 0.0367
PSACHNLFGPVDH [R5H] | 0.254
PSACRNLKGPVDH [F8K] | 0.779
PSACRNLMGPVDH [F8M] | 0.00453
PSACRWLFGPVDH [N6W] | 0.0415
PSFCRNLFGPVDH [A3F] | 0.282
PSACRNPFGPVDH [L7P] | -0.187
PSACRNLFGPVDR [H13R] | 0.107
PSAPRNLFGPVDH [C4P] | 0.109
PSACRNLFDPVDH [G9D] | 0.484
ESACRNLFGPVDH [P1E] | -0.116
PSACRALFGPVDH [N6A] | 0.39
PSACRNFFGPVDH [L7F] | 0.212
PSACRNDFGPVDH [L7D] | 0.175
PSACRNLFGPVDS [H13S] | 0.212
PSACINLFGPVDH [R5I] | 0.0921

Sample 2
Target: Interferon regulatory factor 3, full length, phosphomimetic (IRF3, Homo sapiens, UniProt Q14653, residues 1-427, S386D/S396D/S398D/S402D/T404D/S405D)
Technique: protein-binding microarray
Molecule type: double-stranded DNA, one strand shown
Sample: in vitro
Concentration: 2540 nM top
Notes: 60-bp whole probe
Added: salmon DNA 0.4 mg/ml
Baseline: random background probes
Direction: higher = stronger binding
All sequences stand within: GCCTAGCAC … GTCTTGATTCGCTTGACGCTGCTG
Target sequence (chain): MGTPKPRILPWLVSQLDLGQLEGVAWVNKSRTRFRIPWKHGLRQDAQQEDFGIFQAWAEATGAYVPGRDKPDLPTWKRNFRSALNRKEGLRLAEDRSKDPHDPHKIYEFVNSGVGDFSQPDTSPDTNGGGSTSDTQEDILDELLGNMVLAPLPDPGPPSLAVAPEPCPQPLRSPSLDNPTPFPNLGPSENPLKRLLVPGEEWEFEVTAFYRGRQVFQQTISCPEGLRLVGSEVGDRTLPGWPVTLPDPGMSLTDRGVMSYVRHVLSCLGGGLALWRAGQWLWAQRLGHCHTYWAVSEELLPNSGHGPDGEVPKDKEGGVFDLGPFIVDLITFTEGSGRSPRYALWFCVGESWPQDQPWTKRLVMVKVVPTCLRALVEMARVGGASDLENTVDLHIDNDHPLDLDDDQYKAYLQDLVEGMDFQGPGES
Sequence | fitted relative affinity [z-score]
GACGGTTTCGACTTTCGGGACGTGCTA | 4.12
GACGGACTGCTTATCCCGACGTGCTAG | -0.226
AGAGCAGACCCAGAGTGGCAGTGCTAG | -0.709
TGTCTTCCCCTCTCTTTCCAAGTGCTA | 1.63
TTAGATATCGGGTTTCCATTAGTGCTA | 2.14
GACGGTTTCAGGTATCGGGACGTGCTA | 3.14
GTCATTTTCTCTTATTCTAAGTGCTAG | 2.76
GACGGACTGGGTATCTGGACGTGCTAG | -0.579
TTAGGCCTGGGGTTTCGGTTAGTGCTA | 1.9
AACGGTCTCCTTCTCCTGACGTGCTAG | 4
GACGGCCTCCTACTGCTGACGTGCTAG | -0.609
TTAGATTTCAGACTGGCTTAGTGCTAG | 0.414
TTAGGTTTCGGACTTGGTTAGTGCTAG | 5.94
TCTCATTTCCAATTACCTTTGTGCTAG | 3.82
TCACTTTGCTTTCTCCCACTGTGCTAG | 2.4
TCATATATCCATTATAGACTGTGCTAG | 1.52
TCAAAAGTGTTTCTCAAACTGTGCTAG | 0.241
GACGGTATCCTTATCCTGCCGTGCTAG | 5.14
GACGGTTTCCGTTTCGGGACGTGCTAG | 8.85
GACGGGTTCCTTTCCCTGACGTGCTAG | 4.31
TCTCGCTTCATCTCCCAGACTGTGCTA | 0.523
ACTAATTTCCATTTTCTAAAGTGCTAG | 6.39
GGCTGTTTGGTCCTGATCCTGTGCTAG | -0.0283
GACGATATCGAGACTGGAGACGTGCTA | 0.119
GACGGTATGCTTTTCCTGACGTGCTAG | 0.542

Sample 3
Target: ABI1, truncated, D143A, DHFR fusion (Arabidopsis thaliana)
Technique: DHFR PCA, deep sequencing
Sample: yeast
Notes: methotrexate growth selection, single substitutions
Added: (+)-ABA 0.39 µM
Baseline: wild-type fitted maximum
Direction: higher = stronger binding
Starting sequence: PYL1, truncated, DHFR fusion (Arabidopsis thaliana); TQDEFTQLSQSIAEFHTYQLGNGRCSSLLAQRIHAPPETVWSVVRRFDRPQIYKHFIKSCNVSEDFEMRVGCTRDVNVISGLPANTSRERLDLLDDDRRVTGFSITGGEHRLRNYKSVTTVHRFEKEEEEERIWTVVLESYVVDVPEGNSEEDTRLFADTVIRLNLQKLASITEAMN
Substitution | relative binding score [%]
V121Y | -12.3
F124T | 2.2
T160C | 4.12
L138F | 21.4
F47G | -6.53
K116H | 13.8
E109G | 7.6
D159T | -16.3
D48L | -5.89
S42Y | -0.0906
D95R | -7.04
L20A | 54.3
V136I | 41.8

Mixed results
Substance | target | assay | test system | setting | how to read | endpoint | result
PhoQ, residues 284 288 289 292 302 303 SCKMEA | PhoP, residues 12 14 15 18 19 QWHVF (Escherichia coli, UniProt P23836) | Sort-seq, measured: YFP reporter | E. coli | PhoQ-PhoP variant library, added: 10 µM Mg2+ | baseline: high Mg2+ state, higher = stronger signaling | fold induction | 25.6

Some of these lines once more (sample 2):
Sequence | fitted relative affinity [z-score]
GACGGACTGGGTATCTGGACGTGCTAG | -0.579
TTAGGCCTGGGGTTTCGGTTAGTGCTA | 1.9
AACGGTCTCCTTCTCCTGACGTGCTAG | 4
GACGGCCTCCTACTGCTGACGTGCTAG | -0.609
